Results of several laboratories.
Each line is one published result; not all experiments were run side by side. Numbers after ± are the reported error.
Cell line: HeLa

Structure (SMILES) = CN1CC[C@H](c2c(O)cc(O)c3c(=O)cc(-c4ccccc4Cl)oc23)[C@H](O)C1; test = RT-qPCR, measured: c-Fos, Hsp70, Mcl-1; conditions = 10 nM, overnight; measurement = mRNA level; result = decreased
Structure (SMILES) = Nc1nc(Cl)nc2nc[nH]c12; test = splicing reporter, measured: GLA; conditions = 10 µM, 18 h; measurement = GFP/RFP ratio; result = 0.26
Structure (SMILES) = NCCCOc1cc(NC(=O)c2cc(OCCN)cc(C(=O)Nc3cc(OCCCN)c4ccccc4n3)n2)nc2ccccc12; test = cell viability, CellTiter-Glo; conditions = 72 h; how to read = reference: IC50 HeLa over WI-38; measurement = selectivity ratio; result = 0.8
Structure (SMILES) = COc1cccc2c1C(=O)c1c(O)c3c(c(O)c1C2=O)C[C@@](O)(C(=O)CO)C[C@@H]3O[C@H]1C[C@H](N)[C@H](O)[C@H](C)O1; test = cell viability, MTT; conditions = 48 h; measurement = EC50; result = 2910 nM
Structure (SMILES) = C[C@@H]1CC[C@@H]([C@](C)(O)Cn2cnc3ccccc32)[C@H](OCc2ccccc2)C1; test = cell growth, inhibitor, MTT; conditions = 72 h; measurement = IC50; result = 11600 nM
Structure (SMILES) = COC(=O)COc1c(Cc2cc(C(C)(C)CC(C)(C)C)cc(-n3nc4ccccc4n3)c2OCC(=O)OC)cc(C(C)(C)CC(C)(C)C)cc1-n1nc2ccccc2n1; test = MTT; conditions = 100 µM, 24 h; measurement = growth inhibition; result = 55.1 ± 1.98%
Structure (SMILES) = NCCOc1cc(C(=O)Nc2cc(OCCN3CCCC3)c3ccccc3n2)nc(C(=O)Nc2cc(OCCN3CCCC3)c3ccccc3n2)c1; test = cell viability, CellTiter-Glo; conditions = 72 h; how to read = reference: IC50 HeLa over WI-38; measurement = selectivity ratio; result = 1.4
Structure (SMILES) = O=C(NC[C@H](O)CN1CCc2ccccc2C1)c1cc(NC2COC2)ncn1; test = co-immunoprecipitation, western blot, measured: PRPF6 with GFP-SART3; conditions = 10 µM, 3 days; measurement = protein interaction; result = decreased
Structure (SMILES) = CCCCCCCC/C=C\CCCCCCCC(=O)O; conditions = 200 µM, 20 h, BSA complex; measurement = mitochondrial length decrease; result = 43%
Structure (SMILES) = CN1CCC(NC2CCc3[nH]c4c(C(N)=O)ccc(-c5ccccc5Cl)c4c3C2)CC1 (stereo not shown); test = cell growth; measurement = IC50; result = 20 nM
Structure (SMILES) = NCCOc1cc(NC(=O)c2cc(OCc3ccc(F)cc3)cc(C(=O)Nc3cc(OCCN)c4ccccc4n3)n2)nc2ccccc12; test = cell viability, CellTiter-Glo; conditions = 72 h; how to read = reference: IC50 HeLa over WI-38; measurement = selectivity ratio; result = 0.5
Structure (SMILES) = Oc1ccc(Nc2nc(Cl)nc(NCc3ccco3)n2)cc1; test = splicing reporter, measured: GLA; conditions = 10 µM, 18 h; measurement = GFP/RFP ratio; result = 0.26
Structure (SMILES) = NCCCOc1cc(NC(=O)c2cccc(C(=O)Nc3cc(OCCCN)c4ccccc4n3)n2)nc2ccccc12; test = cell viability, CellTiter-Glo; conditions = 72 h; how to read = reference: IC50 HeLa over WI-38; measurement = selectivity ratio; result = 1.1
Structure (SMILES) = C[C@@H]1CC[C@@H]([C@](C)(O)CNCc2ccc(F)cc2)[C@H](OCc2ccccc2)C1; test = cell growth, inhibitor, MTT; conditions = 72 h; measurement = IC50; result = 24300 nM
Structure (SMILES) = COc1cccc2c1C(=O)c1c(O)c3c(c(O)c1C2=O)C[C@@](O)(C(=O)CO)C[C@@H]3O[C@H]1C[C@H](N)[C@H](O)[C@H](C)O1; test = MTT; conditions = 100 µM, 24 h; measurement = growth inhibition; result = 69.2 ± 1.98%
Structure (SMILES) = C=C(COCc1ccc(OC)cc1)[C@@H]1CC[C@@H](C)C[C@H]1OCc1ccc(OC)cc1; test = cell growth, inhibitor, MTT; conditions = 72 h; measurement = IC50; result = 24700 nM
Structure (SMILES) = COc1cccc2c1C(=O)c1c(O)c3c(c(O)c1C2=O)C[C@@](O)(C(=O)CO)C[C@@H]3O[C@H]1C[C@H](N)[C@H](O)[C@H](C)O1; test = cell viability, MTT; conditions = 48 h; measurement = IC50; result = 0.72 ± 0.12 µg/mL
Structure (SMILES) = CC[C@H](C)[C@@H]1NC(=O)[C@H](Cc2ccc(O)cc2)NC(=O)[C@H](CC(C)C)NC(=O)[C@@H]2CCCN2C(=O)[C@H](NC(=O)[C@@H](CCCNC(=N)N)NC(=O)[C@@H](CCCNC(=N)N)NC(=O)[C@H](CCCCN=[N+]=[N-])NC(C)=O)CSCSC[C@@H](C(=O)N[C@H](CCCNC(=N)N)C(=O)N[C@H](CCCNC(=N)N)C(N)=O)NC(=O)[C@H](C(C)C)NC(=O)[C@@H]2CCCN2C(=O)[C@H](CC(=O)O)NC(=O)[C@H](Cc2ccc(O)cc2)NC(=O)[C@H](CO)NC1=O; test = cell permeability, NanoClick; conditions = 4 h; measurement = EC50; result = > 10000 nM
Structure (SMILES) = COc1ccc(CNC[C@@](C)(O)[C@@H]2CC[C@@H](C)C[C@H]2OCc2ccccc2)cc1; test = cell growth, inhibitor, MTT; conditions = 72 h; measurement = IC50; result = 4320 nM
Structure (SMILES) = c1coc(CNc2ncnc3[nH]cnc23)c1; test = GLA poison exon splicing reporter; conditions = concentration not given; measurement = GLA reporter splicing; result = no effect
Structure (SMILES) = NCCOc1cc(NC(=O)c2cccc(C(=O)Nc3cc(OCCN)c4ccccc4n3)n2)nc2ccccc12; test = cell viability, CellTiter-Glo; conditions = 72 h; how to read = reference: IC50 HeLa over WI-38; measurement = selectivity ratio; result = 0.9
Structure (SMILES) = C[C@]1(c2nc3c(C(N)=O)cccc3[nH]2)CCCN1; test = PAR formation, inhibitor; conditions = together with: hydrogen peroxide; measurement = EC50; result = 4.5 nM
Structure (SMILES) = C[C@@H]1CC[C@@H]([C@](O)(CNCc2ccc(F)cc2)COCc2ccc(F)cc2)[C@H](OCc2ccc(F)cc2)C1; test = cell growth, inhibitor, MTT; conditions = 72 h; measurement = IC50; result = 2880 nM
Structure (SMILES) = COc1ccc(NC(=S)N/N=C/c2cccc3cc4ccccc4nc23)cc1; test = annexin V/PI; conditions = concentration not given, 48 h, dosed at IC25, together with: N-acetylcysteine; measurement = early apoptotic cells; result = 7.2%
Structure (SMILES) = Clc1nc(NCc2ccco2)c2[nH]cnc2n1; test = GLA poison exon splicing reporter; conditions = 10 µM, 18 h; measurement = GFP/RFP ratio; result = 1
Structure (SMILES) = C[C@@H]1CC[C@@H]([C@@](O)(CNCc2ccccc2)COCc2ccc(F)cc2)[C@H](OCc2ccc(F)cc2)C1; test = cell growth, inhibitor, MTT; conditions = 72 h; measurement = IC50; result = 2950 nM
Structure (SMILES) = CCCCCCCCCCCCCC(=O)N[C@@H](CCSC)C(=O)N[C@@H](C)C(=O)N[C@@H](CO)C(=O)N[C@@H](CCCNC(=N)N)C(=O)NCC(=O)N[C@@H](C)C(=O)N[C@@H](CC(C)C)C(=O)N[C@@H](CCCNC(=N)N)C(=O)N[C@@H](CCCNC(=N)N)C(=O)N[C@@H](CS)C(=O)N[C@@H](CC(C)C)C(=O)N[C@@H](CO)C(=O)N1CCC[C@H]1C(=O)NCC(=O)N[C@@H](CC(C)C)C(=O)N1CCC[C@H]1C(=O)N[C@@H](CCCNC(=N)N)C(=O)N[C@@H](CC(C)C)C(=O)N[C@@H](CC(C)C)C(=O)N[C@@H](Cc1c[nH]cn1)C(=O)N[C@@H](CC(C)C)C(=O)N[C@@H](CO)C(=O)N[C@@H](CCCNC(=N)N)C(=O)NCC(=O)N[C@@H](CC(C)C)C(=O)N[C@@H](C)C(N)=O; test = cell viability, XTT; conditions = concentration not given, cervix; measurement = viability; result = inhibited
Structure (SMILES) = CC(=O)N[C@@H](CS)C(=O)O; test = annexin V/PI flow cytometry; conditions = concentration not given, 48 h; measurement = necrotic cells; result = 3.76 ± 2%
Structure (SMILES) = CC(C)n1cnc2c(NCc3ccccc3O)nc(Cl)nc21; test = splicing reporter, measured: GLA; conditions = 10 µM, 18 h; measurement = GFP/RFP ratio; result = 0.25
Structure (SMILES) = COc1ccc(CNC[C@](O)(COCc2ccc(OC)cc2)[C@@H]2CC[C@@H](C)C[C@H]2OCc2ccc(OC)cc2)cc1; test = cell growth, inhibitor, MTT; conditions = 72 h; measurement = IC50; result = 1950 nM
Structure (SMILES) = Clc1ncnc2c1ncn2C1CCCCO1 (stereo not shown); test = splicing reporter, measured: GLA; conditions = 10 µM, 18 h; measurement = GFP/RFP ratio; result = 0.5
Structure (SMILES) = CN(C)CCOc1cc(NC(=O)c2cc(Cl)cc(C(=O)Nc3cc(OCCN(C)C)c4ccccc4n3)n2)nc2ccccc12; test = cell viability, CellTiter-Glo; conditions = 72 h; how to read = reference: IC50 HeLa over WI-38; measurement = selectivity ratio; result = 1.3
Structure (SMILES) = Fc1nc(Cl)c2[nH]cnc2n1; test = GLA poison exon splicing reporter; conditions = 10 µM, 18 h; measurement = mean GFP/RFP ratio; result = 0.36
Structure (SMILES) = COc1cc(C(=O)Nc2cc(OCCN3CCCC3)c3ccccc3n2)nc(C(=O)Nc2cc(OCCN3CCCC3)c3ccccc3n2)c1; test = cell viability, CellTiter-Glo; conditions = 72 h; how to read = reference: IC50 HeLa over WI-38; measurement = selectivity ratio; result = 1
Structure (SMILES) = Clc1cc(NCc2ccco2)ncn1; test = splicing reporter, measured: GLA; conditions = 10 µM, 18 h; measurement = GFP/RFP ratio; result = 0.42
Structure (SMILES) = COc1cccc(CNC[C@@](C)(O)[C@@H]2CC[C@@H](C)C[C@H]2OCc2ccccc2)c1; test = cell growth, inhibitor, MTT; conditions = 72 h; measurement = IC50; result = 6290 nM
Structure (SMILES) = C#CCOc1cc(C(=O)Nc2cc(OCCN)c3ccccc3n2)nc(C(=O)Nc2cc(OCCN)c3ccccc3n2)c1; test = cell viability, CellTiter-Glo; conditions = 72 h; how to read = reference: IC50 HeLa over WI-38; measurement = selectivity ratio; result = 0.8
